# Results of several laboratories.
# Lines come from different studies, so protocols differ. Values joined by “and” are separate records of one study, mostly repeats; a detail may differ. ± gives the spread as reported.
SMILES,assay,system,setting,how to read,quantity,value
CCCc1nn(C)c2c(=O)[nH]c(-c3cc(S(=O)(=O)N4CCN(C)CC4)ccc3OCC)nc12,,"human patients on drug, serum or plasma","dose not given, main analysis, matching 1:10","relative to: off-drug patients, 5.94 mg/dL",mean serum uric acid,6.84 mg/dL
CC(C)CCCCCCCCC[C@@H]1CC(=O)N[C@@H](CCC(=O)O)C(=O)N[C@@H](CC(C)C)C(=O)N[C@H](CC(C)C)C(=O)N[C@@H](C(C)C)C(=O)N[C@@H](CC(=O)O)C(=O)N[C@H](CC(C)C)C(=O)N[C@@H](CC(C)C)C(=O)O1,calcein leakage,DOPC/DOPG/CHOL liposomes,"concentration not given, together with: 20 wt% PEG-8000",,maximum fusion,63 ± 12%
Cc1nc(Nc2ccc(CC(=O)O)cc2)nc(Nc2ccc(F)c(C(F)(F)F)c2)c1C,,"C57BL/6J mouse, high-fat diet MASH model, white adipose tissue","intraperitoneal, 0.3 mg/kg daily, 60% fat diet for 12 weeks, dosed final four weeks",relative to: untreated,adipocyte area,decreased
CC(C)C1CCC(N2CCC(N3C(=O)/C(=N\O)c4ccccc43)CC2)CC1 (stereo not shown),,conscious Sprague-Dawley rat,"intravenous bolus, 100 nmol/kg",,urine flow rate,increased
Clc1cc2c(cc1Cl)Oc1cc(Cl)c(Cl)cc1O2,"RNA-Seq, item: Ptgs1","female Sprague-Dawley rat, liver",dose not given,relative to: vehicle,mRNA level,1.4 fold
CCCCC1(CCCC)CN(c2ccccc2)c2cc(SC)c(OCC(=O)N[C@@H](C(=O)NCC(=O)O)c3ccccc3)cc2S(=O)(=O)C1,,human,"5 mg once daily, 120 h",,serum HDL cholesterol,46.5 mg/dL
C=CC(=O)Nc1cc(Nc2ncc(Cl)c(Nc3ccccc3C(=O)C(=O)N(C)C)n2)c(OC)cc1N1CCN(C)CC1,RECIST v1.1 best response,human EGFR T790M NSCLC,"oral, 100 mg/day, per-protocol set",,patients with complete response,0%
C[C@H]1O[C@@H](O[C@H]2CC[C@@]3(C)[C@@H](CC[C@]4(C)[C@@H]3C=C[C@]35OC[C@@]6(CCC(C)(C)C[C@H]63)[C@@H](O)C[C@]54C)[C@]2(C)CO)[C@H](O)[C@@H](O[C@@H]2O[C@H](CO)[C@@H](O)[C@H](O)[C@H]2O)[C@H]1O,"Western blot, item: Deptor","mouse, hepatic SIRT1 knockdown (AAV8-TBG), liver","dose not given, high dose, unit not given, together with: ethanol",relative to: β-actin,protein level,0.602 and 0.759 and 0.852
C[C@H](NC(=O)c1c(C(F)F)nn(C)c1Oc1cccc(C(F)(F)F)c1)c1ccc(C(=O)O)cc1,,"human, advanced tumours",500 mg,,median overall survival,3.7 months
NC(=O)c1ncn([C@@H]2O[C@H](CO)[C@@H](O)[C@H]2O)c1N,"binding, equilibrium dialysis LC-MS",,"5 µM, thermostabilized A2AR-BRIL construct","relative to: no-protein control, direction not given",z-scored log2 fold change,0.174
CN(C)C1(CNC(=O)c2ccc3c(c2)CCN3C(=O)c2ccccc2)CCOCC1,acetone test,"mice, chronic constriction injury","intraperitoneal, 50 mg/kg, 2 h",,reduction of cold allodynia,59%
CC[C@H](C)C[C@H](C)CCCCCCCCC(=O)N[C@H]1C[C@@H](O)[C@@H](NCCN)NC(=O)[C@@H]2[C@@H](O)CCN2C(=O)[C@H]([C@H](O)CCN)NC(=O)[C@H]([C@H](O)[C@@H](O)c2ccc(O)cc2)NC(=O)[C@@H]2C[C@@H](O)CN2C(=O)[C@H]([C@@H](C)O)NC1=O,calcein leakage,DOPC/CHOL liposomes,"concentration not given, together with: 20 wt% PEG-8000",,maximum fusion,16 ± 2%
CN(CC(=O)O)C(=N)NP(=O)(O)O,"binding, equilibrium dialysis LC-MS",,"5 µM, thermostabilized A2AR-BRIL construct","relative to: no-protein control, direction not given",z-scored log2 fold change,0.204
CC[C@H](C)[C@@H]1NC(=O)[C@@H]2CCCN2C(=O)[C@H](CC(C)C)NC(=O)[C@H](CC(C)C)NC(=O)CNC(=O)[C@@H](NC(=O)[C@@H](NC(=O)[C@H](CC(=O)O)NC(=O)CNC(=O)[C@@H](NC(=O)[C@H](C)NC(=O)CNC(=O)[C@H](CCCCN)NC(=O)[C@H](CC(C)C)NC(=O)[C@H](CC(C)C)NC(=O)[C@H](CCCCN)NC(=O)CNC(=O)[C@@H](NC(=O)[C@@H](N)CC(C)C)C(C)C)C(C)C)C(C)C)CSSC[C@@H](C(=O)O)NC1=O,"RNA-seq, item: Samd9l","mouse, traumatic brain injury model, frontal cortex and hippocampus",dose not given,relative to: TBI alone,log2 fold change,-1.08
C[C@]1(CO)Cc2ncn(-c3ccc(C#N)c(Cl)c3)c2C(=O)O1,"aldosterone synthesis, inhibitor, item: cortisol","healthy Japanese adults, urine","80 mg, 0-24 h after first dose, multiple rising dose",,urinary excretion,76.7 mmol
CC(C)(O)c1cnc2ncc(-c3ccc(F)c(-c4c(F)cccc4C#N)c3)n2n1,"midazolam self-administration decrease, progressive-ratio schedule",rhesus monkey,"intravenous, together with: midazolam 0.056 mg/kg/injection",relative to: vehicle,minimum effective dose,0.3 mg/kg
[131I-].[Na+],,hyperthyroidism patients,"185 MBq, long-term follow-up",,patients with recurrence,~2.8%
CC(=O)c1c(C)c2cnc(Nc3ccc(C4CCN(CCS(C)(=O)=O)CC4)cn3)nc2n(C2CCCC2)c1=O,tumour growth,"mouse, MDA-MB-435S xenograft","oral, 80 mg/kg twice daily, 25 days",,T/C,15%
CN1CCN(S(=O)(=O)c2cc([N+](=O)[O-])ccc2N(CCOS(C)(=O)=O)CCOS(C)(=O)=O)CC1,,"NSG mice, sample BF PDX","intraperitoneal, 25 mg/kg weekly x3",,event-free survival,4.8 days

# Some of these lines once more:
SMILES,assay,system,setting,how to read,quantity,value
Cc1nc(Nc2ccc(CC(=O)O)cc2)nc(Nc2ccc(F)c(C(F)(F)F)c2)c1C,,"C57BL/6J mouse, high-fat diet MASH model, white adipose tissue","intraperitoneal, 0.3 mg/kg daily, 60% fat diet for 12 weeks, dosed final four weeks",relative to: untreated,adipocyte area,decreased
